Experimental data from different studies.
Every numbered part comes from another study and shows a few of its results, in no order. Substitutions count along the parent as printed.

Block 1
Target: Histone acetyltransferase KAT6A, winged helix 2, GST fusion (KAT6A, Homo sapiens, UniProt Q92794, residues 85-181)
Method: protein binding microarray
Molecule type: double-stranded DNA, one strand shown
Sample: in vitro
Tested at: not given
Notes: 8-mer, flanks averaged, mean of 2 arrays, mostly near background
Relative to: not given
Direction: higher = stronger binding
Residues (chain): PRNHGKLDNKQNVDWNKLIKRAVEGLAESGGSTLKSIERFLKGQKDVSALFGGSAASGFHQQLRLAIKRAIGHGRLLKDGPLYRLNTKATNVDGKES
Oligonucleotide | E-score
ACAGGCCT | -0.161
GGATGAGA | -0.133
AAGACTAG | -0.221
GGACTCCC | -0.0586
TAGCCATA | -0.125
CTGACCAG | 0.124
AGCTAACC | -0.204
CTGGGTGA | 0.212
CTCACATC | 0.0482
AACCGTCG | 0.0676
AGGTGAGC | -0.0721
CTGTACAC | -0.0834
ATTAACAA | 0.099
ATACTAGA | 0.156
AGAAGAAC | -0.122
ATATTCAC | -0.0595
ATTCGGGC | 0.0522

Block 2
Target: RNA binding protein fox-1 homolog 2, RRM domain, GST-SBP tag (RBFOX2, Homo sapiens, UniProt O43251-10, residues 100-194)
Method: RNA Bind-n-Seq
Molecule type: RNA
Sample: in vitro
Tested at: 365 nM
Notes: natural RNA segment, single round, ends assumed
Relative to: no-protein control
Direction: higher = stronger binding
Residues (chain): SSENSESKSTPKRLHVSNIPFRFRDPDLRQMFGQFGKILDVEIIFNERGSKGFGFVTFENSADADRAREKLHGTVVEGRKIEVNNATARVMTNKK
Oligonucleotide | RBNS enrichment (R)
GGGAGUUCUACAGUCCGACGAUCUUGGUAGAACACAACAUCUACCAUUCAGUUAAACCUUCUUUAUCUCCUCCUUUGGCAUCCAUUUUUCCAAAGAAGAGUCGAGUCCUCUGAGGUCUGUGCUUGAAAGCCGUUGGAAUUCUCGGGUGCCAA | 0.319
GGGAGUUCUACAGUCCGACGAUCUAGCUGCCGCUCCAUCAGGGUUCCAGUGAUCUGUAUUGAUGAGAAGAAGCAGAGGUCUCAGCGUCAUCCAGCUCUGACCAAUCCCUGGACCUGUCUACCUGAGGAGCUCCUGGAAUUCUCGGGUGCCAA | 0.272
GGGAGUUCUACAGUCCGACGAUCCCCUGCCCCCUUUCCAUUCGUGGGGAAGAAGGCAGGAGAGAGCUGGGAAAUCACAGUUCAUCACUUGAGCAUCAUAGCCUUACCCCUCGCCCCUGGUCCUACUCCUGCCUUGGAAUUCUCGGGUGCCAA | 0.281
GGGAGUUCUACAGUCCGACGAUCGGCAGUGACAUAUGGCCUCAGGCUGGACACCGAGACAGGUGGAAAUACCCUGUCCAUUGGUAGAUGUCUUGCUUCUUCUGGUUCAGGCAGGGAAAACACUUGGACUCUUCUGGAAUUCUCGGGUGCCAA | 0.446
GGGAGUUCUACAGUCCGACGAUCAGCUGCCUCAUUAGCCUGGCUUCAUUUGGGGAGCUCCUGACAGUGUCCCGAGUAGGUGCCCAGCCCCUCUUGGGUACCAGAGUGGUUAUAGCGACACACUCCUCAUCCAGUGGAAUUCUCGGGUGCCAA | 0.304
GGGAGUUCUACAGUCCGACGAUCUUGGGAAUCCUGGAUAGUGUUCUAUCCAUGGAAAGUGGUGGAAUAGGAAUUAAGGGUGUUCCCCCCCCCCCCAACCUCUUCCUCAGACCCAGCCACUUUCUAUGACUUAUUGGAAUUCUCGGGUGCCAA | 0.399
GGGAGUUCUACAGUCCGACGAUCCUCGUGUACAUGGUACUUCUUUCUGCUACAGCCGCCAAGUCUAGAGUGUUUACACUGGUUGAUGCUUACACAGCCUGAACUCAGUGCCUCAAACUCCUCUGUGACCAGUUUGGAAUUCUCGGGUGCCAA | 0.22
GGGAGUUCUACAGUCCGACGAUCAGACCUUAGAAUCCCAUCUCUAUUUUCCCAACUGACUGUGACAGGCAUGAGGCACUGUCACUUGCUUAGUACAAAGUCCUGGGCUGGAGAGAUGGCUCAGUGGUUAAGAGUGGAAUUCUCGGGUGCCAA | 1.02
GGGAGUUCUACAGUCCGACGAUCGCCCCUGGCAGACAUAGCUGCUUCAGUGCCCCUUUUCUCUCUGCUAGAUGGAUGUUGAUGCACUGGAGGUCUUUUAGCCUGCCCUUGCAUGGCGCCUGCUGGAGGAGGAGUGGAAUUCUCGGGUGCCAA | 0.514
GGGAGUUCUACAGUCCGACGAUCUAUUUACCUAAAAAAAGAAAAUGCUUCAGUCAAUUGCUUUUUUAUUUAAAAAAAAAAAGAAAAAAAGCUGUAACCUUAUCAUUUCUGAGUAGACCAUUGAGCGAUGAAUGUGGAAUUCUCGGGUGCCAA | 0.39
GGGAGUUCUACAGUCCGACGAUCAUAGCAUUUACAGCCCCGGGCUGUACCCAGACCAGGCUACCUGGGCAGCACAAAGGGCAAGGAGAGCCCCAACCCCAGUUGCUCCAAGCUCCCCAAUCACUUAGUCUUCAUGGAAUUCUCGGGUGCCAA | 0.955
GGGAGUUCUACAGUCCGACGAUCUUGAAUUGUGAGAACAUUUUUGAACAAUUUACCUGUCAAUAAAGCAGAAGACGGCAGUUUUAAAGUUCCAGUGGUCCGUUUGGAUGUGGUAACAUGUCACCCGUGUGUCUUGGAAUUCUCGGGUGCCAA | 0.681

Block 3
Target: Interferon regulatory factor 5, full length, phosphomimetic (IRF5, Homo sapiens, UniProt Q13568-2, residues 1-514, S451D/S453D/S456D/S462D)
Method: protein-binding microarray
Molecule type: double-stranded DNA, one strand shown
Sample: in vitro
Tested at: 940 nM top
Notes: 60-bp whole probe
Together with: salmon DNA 0.4 mg/ml
Relative to: random background probes
Direction: higher = stronger binding
Shared flanks, not repeated: GCCTAGCAC … GTCTTGATTCGCTTGACGCTGCTG
Oligonucleotide | fitted relative affinity
TTAGAACTGAGACTGTATTAGTGCTAG | -0.134 z-score
TTAGTTCTCGGTCTCGGTTAGTGCTAG | 6.78 z-score
TCAAATTCTCATTTCCAACTGTGCTAG | 1.27 z-score
TGGTGTCTCTGGCCTGGGTCGGTGCTA | 0.254 z-score
CAAACACTAATTTTCAATTCGTGCTAG | 0.212 z-score
TTAGGACTGGGATTTCGGTTAGTGCTA | -0.07 z-score
TTAAGTATCGACTTTCGGTTAGTGCTA | 6.17 z-score
TTAGAGCTCAGTATCGATTAGTGCTAG | 4.36 z-score
TTAGATTCCAGGTTCGATTAGTGCTAG | 0.339 z-score
TTAGGCCTGGACTATCGGTTAGTGCTA | -0.322 z-score
TCATTTTCATATATATAACTGTGCTAG | 1.4 z-score
TTAGATTTCAGTTCGGATTAGTGCTAG | 0.784 z-score
GACGATGTCGGGACTGGAGACGTGCTA | -0.572 z-score
TTAGATTTCAGTTCCGATAAGTGCTAG | 1.64 z-score
TCAATTTCCATTATTGCACTGTGCTAG | 0.703 z-score
CACTGCATCTGATTTCTCAAAGTGCTA | 0.574 z-score
CATTGCTTGTGTTTATTGTGGTGCTAG | 0.692 z-score
GACGATTTCGGGTATCGAGATGTGCTA | 1.4 z-score
TAGGCTCCAGGTTCTCTGAAGGTGCTA | -0.591 z-score
TTAGGTTTCGGGTTTCAGTTAGTGCTA | 10.4 z-score
GACGGACTGCACTTTCGGGACGTGCTA | 0.778 z-score
TGAGATTCCAGTTTCGATTAGTGCTAG | 8.24 z-score
CTTGGCTTCTCCCACAGGTGGTGCTAG | -0.15 z-score

Block 4
Target: Sal-like protein 4, full length isoform A (SALL4, Homo sapiens, UniProt Q9UJQ4, residues 1-1053)
UniProt Q9UJQ4, sequence (whole entry, looked up): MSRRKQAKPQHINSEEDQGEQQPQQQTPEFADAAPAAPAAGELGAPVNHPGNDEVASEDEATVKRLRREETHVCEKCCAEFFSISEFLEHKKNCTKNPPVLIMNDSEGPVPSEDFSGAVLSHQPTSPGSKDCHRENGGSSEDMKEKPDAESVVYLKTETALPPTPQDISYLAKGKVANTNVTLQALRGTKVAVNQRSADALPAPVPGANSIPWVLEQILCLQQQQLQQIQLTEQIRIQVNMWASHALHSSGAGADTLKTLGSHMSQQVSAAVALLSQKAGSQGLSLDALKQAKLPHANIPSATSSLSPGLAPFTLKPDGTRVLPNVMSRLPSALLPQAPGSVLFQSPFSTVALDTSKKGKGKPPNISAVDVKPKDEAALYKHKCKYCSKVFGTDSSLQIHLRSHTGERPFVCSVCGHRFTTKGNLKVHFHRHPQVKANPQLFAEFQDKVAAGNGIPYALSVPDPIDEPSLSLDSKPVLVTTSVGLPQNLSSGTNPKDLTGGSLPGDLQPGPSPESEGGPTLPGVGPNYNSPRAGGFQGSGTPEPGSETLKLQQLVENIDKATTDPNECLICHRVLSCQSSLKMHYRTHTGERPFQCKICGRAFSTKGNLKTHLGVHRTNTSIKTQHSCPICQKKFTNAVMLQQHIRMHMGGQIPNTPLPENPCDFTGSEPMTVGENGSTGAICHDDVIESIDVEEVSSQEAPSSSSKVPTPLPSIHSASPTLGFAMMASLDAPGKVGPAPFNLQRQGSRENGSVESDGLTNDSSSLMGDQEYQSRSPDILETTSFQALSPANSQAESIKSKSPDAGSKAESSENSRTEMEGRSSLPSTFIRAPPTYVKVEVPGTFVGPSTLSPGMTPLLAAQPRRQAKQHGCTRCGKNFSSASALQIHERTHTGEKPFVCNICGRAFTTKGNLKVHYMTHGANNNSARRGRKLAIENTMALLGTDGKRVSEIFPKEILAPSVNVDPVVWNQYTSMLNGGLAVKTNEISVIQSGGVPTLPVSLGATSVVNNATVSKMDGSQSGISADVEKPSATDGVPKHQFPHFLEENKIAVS
Method: universal PBM
Molecule type: double-stranded DNA, one strand shown
Sample: in vitro
Tested at: 600 nM
Notes: 8-mer, flanks averaged, mean of replicates
Direction: higher = stronger binding
Oligonucleotide | E-score
TCAATTGA | 0.238
CGATGTGC | -0.199
TAAAGTGA | 0.283
AACTAACC | 0.108
ATACAACA | 0.285
ACCCGTGG | -0.302
AAAGGGGC | -0.184
CTTTGTAC | 0.0886
GCTCCGCC | -0.355
TCTGATCA | -0.00402
CCAGTGAC | -0.253
CGTTACAA | 0.229
CTGCGCAA | -0.123
AGCTGTCG | -0.114
TATTCGAA | 0.214
GGTTGAAC | -0.0285
ATGGTATG | 0.148
AACCCATA | 0.264
AGCTCAGG | -0.17
GTGCCAAA | -0.0342

Block 5
Target: CCND2, cyclin fold, Cln2 fusion (human)
Method: yeast growth competition, sequencing
Sample: yeast
Notes: weak parent motif
Relative to: not given
Direction: higher = stronger binding
Starting sequence: E2F1 docking peptide (human); PPVKRRLDLETDH; partner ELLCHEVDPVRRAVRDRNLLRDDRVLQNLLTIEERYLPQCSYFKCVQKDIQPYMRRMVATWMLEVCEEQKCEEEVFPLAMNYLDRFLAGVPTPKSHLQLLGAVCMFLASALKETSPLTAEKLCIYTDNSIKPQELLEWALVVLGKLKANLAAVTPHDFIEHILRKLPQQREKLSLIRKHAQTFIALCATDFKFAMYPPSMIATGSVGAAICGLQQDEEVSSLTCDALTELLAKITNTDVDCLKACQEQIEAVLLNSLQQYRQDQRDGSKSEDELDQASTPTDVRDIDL
Variant | normalised enrichment score
PPVKNRLDLETDH [R5N] | 0.266
PPVKRRLDLETTH [D12T] | -0.217
PPVKRRLWLETDH [D8W] | 0.19
PPVKRRLDLETDR [H13R] | 0.0509
PPVKRRLLLETDH [D8L] | 0.493
PPVLRRLDLETDH [K4L] | 0.154
PPVKRRLDLETSH [D12S] | 0.342
PPGKRRLDLETDH [V3G] | -0.263
PRVKRRLDLETDH [P2R] | 0.119
PPVKTRLDLETDH [R5T] | 0.0363
PPVKRKLDLETDH [R6K] | 0.0182
PPVKRRNDLETDH [L7N] | 0.0685
PPVKRRLILETDH [D8I] | 0.324
PPVFRRLDLETDH [K4F] | 0.171
PPVKRRLDLETHH [D12H] | -0.0734
PPVARRLDLETDH [K4A] | 0.411
MPVKRRLDLETDH [P1M] | 0.48
PPVKARLDLETDH [R5A] | 0.186
PPMKRRLDLETDH [V3M] | 0.523
PPVKRQLDLETDH [R6Q] | 0.524
PPVTRRLDLETDH [K4T] | -0.283
APVKRRLDLETDH [P1A] | 0.303
PPVKRRLDLKTDH [E10K] | -0.361
PPVKLRLDLETDH [R5L] | 0.00678
PVVKRRLDLETDH [P2V] | 0.00941
